Experimental data collected from several papers.
A part holds a random share of what one study measured.

Series 1
Target: Interferon regulatory factor 7, full length, phosphomimetic (IRF7, Homo sapiens, UniProt Q92985, residues 1-503, S471D/S472D/S475D/S476D/S477D/S483D/S484D/S487D)
Method: protein-binding microarray
Form: double-stranded DNA, one strand shown
Medium: in vitro
Tested at: 2200 nM top
Setting: 60-bp whole probe
With: salmon DNA 0.4 mg/ml
Reference: random background probes
Direction: higher = stronger binding
Constant ends, left off below: GCCTAGCAC … GTCTTGATTCGCTTGACGCTGCTG
Construct (chain): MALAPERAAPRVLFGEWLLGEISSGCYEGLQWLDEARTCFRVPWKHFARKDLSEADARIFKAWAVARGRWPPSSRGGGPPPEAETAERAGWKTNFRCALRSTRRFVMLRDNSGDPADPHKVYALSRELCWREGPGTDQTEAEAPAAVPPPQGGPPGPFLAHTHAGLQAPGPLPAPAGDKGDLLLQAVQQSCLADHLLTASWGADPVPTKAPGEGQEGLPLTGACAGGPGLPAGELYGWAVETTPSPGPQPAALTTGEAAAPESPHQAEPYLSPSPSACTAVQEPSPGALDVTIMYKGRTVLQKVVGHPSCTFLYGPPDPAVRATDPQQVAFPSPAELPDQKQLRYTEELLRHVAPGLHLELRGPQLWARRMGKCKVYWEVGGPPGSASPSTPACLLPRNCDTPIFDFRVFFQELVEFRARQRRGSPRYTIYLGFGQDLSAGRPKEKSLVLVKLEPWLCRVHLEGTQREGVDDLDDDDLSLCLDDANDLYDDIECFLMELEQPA
Sequence | fitted relative affinity
GACGGACTGCACACTGGGGACGTGCTA | -0.566 z-score
TCAGTTCACTATTTAAGACTGTGCTAG | 1.42 z-score
TTAGAACTGAGTATCGAGTAGTGCTAG | -0.496 z-score
TCCAGTCTGGGAGATGAAGCGGTGCTA | -0.673 z-score
TCACAGATGTTTTTCATACTGTGCTAG | 0.842 z-score
GACGGTATCAGTCTCGAGACGTGCTAG | 0.456 z-score
GACGGACTGCTACTGATGACGTGCTAG | -0.0987 z-score
GACGATTTCAGTATCGAGAGGTGCTAG | 0.54 z-score
TTAGGACCGGGTATCGGTTAGTGCTAG | -0.505 z-score
TCAATTTTTTTTCACTAACTGTGCTAG | 1.06 z-score
TTGGAACTGAGACTGGATTAGTGCTAG | -0.468 z-score
GTAGAACTGGGGTATCGATTAGTGCTA | 0.155 z-score
TTAGGTTCCGGTTTCGATTAGTGCTAG | 7.46 z-score
GACGGTTTCCTTTCCGTGACGTGCTAG | 3.99 z-score
TCATGTTTGTGTGTGTAACTGTGCTAG | 1.54 z-score
TTAGATATCGGGTATCAATTAGTGCTA | 0.142 z-score

Series 2
Target: RNA binding protein fox-1 homolog 2, RRM domain, GST-SBP tag (RBFOX2, Homo sapiens, UniProt O43251-10, residues 100-194)
Method: RNA Bind-n-Seq
Form: RNA
Medium: in vitro
Tested at: 365 nM
Setting: natural RNA segment, single round, ends assumed
Reference: no-protein control
Direction: higher = stronger binding
Constant ends, left off below: GGGAGUUCUACAGUCCGACGAUC … UGGAAUUCUCGGGUGCCAA
Construct (chain): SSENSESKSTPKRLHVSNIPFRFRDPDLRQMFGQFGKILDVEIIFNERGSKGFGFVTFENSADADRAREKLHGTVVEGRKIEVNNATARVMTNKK
Sequence | RBNS enrichment (R)
GUGUUCUGUUUCAAUGUAUAAGGACUAUAGUGAUUUAAACUCAUCAAUGUGCCUUUGCAUAAAGUUCAUUAAAUAAAUAUUGAUGUGGUAUAAAUGCCCAUCAGAUAUGC | 0.465
UGCUGAGGUUGGGGGCUCUGCCAUCCCUCCCCUGCUGGGUACCCUGUUACCAUUCAUUGUCUGUGCUGUUUCCCAUUGUGCCCAGCAGUAGCAACAACAAGAUCACAUGG | 0.388
UAUCCCUUAUCCAAAAUGCUUGGAACCAGAAGUGUUUCAAAUUUUAGAUUAUUUUCAGAUUUUGGAAUGUUUGCAUAUACAUAAUGAGAUAUUUUGGGAAUAGGACCCGA | 1.48
UGUGAUUGAUAAAAAGAAGAUGAGUGUUAAUUAGCCUCCAGUGAAAAUAUACUGAAAGCCUGUUUUCAUUUGAUUCCAAUGUUUCUUCCAAAGAAUUCUGUAUAAACAUA | 0.383
UUACUCCAGCUGCCUCCCAGAUUAAUGCAUAAAGCCAAGGAACUACCCCGCUCCCUGCGCUAUAGGGUCACUUUAAGCUCUGGGGAAAAAGGAGAAAGUGAGAGGAGAGU | 0.414
UCUGGUGGAACCCUGCCCCUUACCAGCCUUGAUGGCAGCGGGAAUCUGGUGCUGGGGGCAGCCGGUGCAGCCCCGGGGAGCCCUGGCCUGGUGACCUCGCCGCUCUUCUU | 0.539
ACAAUCUGAACUAUGUUUCUGAUGUGUGCACACUUUCCAUUUUAGUGCUAUUUUACAUCUGUUCGUUAAAGUAUUAAGUAAUUUAAUGACCCCAAGAGUACCAGAUUCUG | 0.445
UUAAAUGAUUCUUUGUGUACCUUUUCUGUCAUAUUCAGAAACCGUUUUGUGCCUGCUGGGAGUAAUUCCUUUAGCAAUUAAGUAUUUGGUAGCUGAAUAAGGGGUCAGAA | 0.36
CUGCAGUCAGUGCUAAUCCGUCGUUCUUAAUCAGGAGUUCUGCCAGGUUUAAGGUCACCUGCACUCCCAGCCAAGUGGUGAUGUAUGCCUCCCACUCUCUGCAAGGUUUU | 0.875
ACGCCACCAUGAAGCCUCAAAAGGUUCAGUAUUAAGGGUUUUAACCGAAAAGAGUUUAACCAGCCCAACUGUGCCAUCCCUGCCUCCACUUCAGAGGGAUGGAGAAAGAA | 0.543
GGGGUCAUUCUACCAACAAUCAGUCCCUGAGGGUUCACAACACCCUGGAACCAAACAUCAGAAUGCACACUAUUCUCCUAACAGUGAGCAUGGGGGGCAGGAGCCAGGGA | 0.412
UGAUCUAGGUACUAAGAUAUUCACUGUGAACCCGAUCUAUUGCACAAAUGGAGUCCUUUUGUAUUACUCUCUAUGGGAUAGCACAAGAUAGCUCUGUAGGAUAGUCUCAG | 0.329

Series 3
Target: Sal-like protein 4, full length isoform B (SALL4, Homo sapiens, UniProt Q9UJQ4-2, residues 1-616)
Method: universal PBM
Form: double-stranded DNA, one strand shown
Medium: in vitro
Tested at: not given
Setting: 8-mer, flanks averaged, mean of replicates
Direction: higher = stronger binding
Sequence | E-score
GCCTCGAC | -0.163
AAGTATGC | 0.17
CCCGACAG | -0.185
TATCCACA | 0.167
TATCGAGA | 0.161
TAAAGCCA | 0.115
ACAGACCA | -0.095
GCTAGCAC | -0.178
GGGGTGTA | -0.107
AGCGCAAA | -0.0184
AGAAAAGA | 0.151
AACAACCA | 0.183
CTCTTCAG | -0.117
GTGCCGTA | -0.0396
TATCGGGA | 0.0141
CTTAGAAG | -0.00755
CCTTGGGC | -0.321
CTGCAAAC | 0.0345
ATTGTTTG | 0.231
ATCCAAGC | -0.2
CTCCTAAG | -0.183
AAAGCAAC | -0.00552
AAGAACAG | -0.042
CGGATCTC | -0.304
GAGGTTGC | -0.233

Series 4
Target: Histone acetyltransferase KAT6A, both winged helices, GST fusion (KAT6A, Homo sapiens, UniProt Q92794, residues 1-181)
Method: protein binding microarray
Form: double-stranded DNA, one strand shown
Medium: in vitro
Tested at: not given
Setting: 8-mer, flanks averaged, mean of 2 arrays, mostly near background
Reference: not given
Direction: higher = stronger binding
Residues (chain): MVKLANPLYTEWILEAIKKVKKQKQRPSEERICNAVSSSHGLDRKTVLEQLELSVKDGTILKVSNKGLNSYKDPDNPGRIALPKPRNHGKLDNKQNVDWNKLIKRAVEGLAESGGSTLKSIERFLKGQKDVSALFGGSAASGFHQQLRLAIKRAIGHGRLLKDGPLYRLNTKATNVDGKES
Sequence | E-score
AATTAAAT | 0.0122
CGTGCTAA | 0.0203
CACGCATC | 0.182
AACTAACA | 0.0125
ATAGACCA | -0.121
CACGGATG | 0.222
AATTTCCC | -0.113
CTTTGAGC | 0.00059
ATCTTCCG | 0.22
AGATCCCC | -0.0335
ACCTTCGC | 0.0512
CCGATAAG | 0.0561
ATTCCACA | -0.117
CATGAAGA | -0.143
AGGGGATC | -0.151
ACTAGATC | -0.109
CTAAAGAG | -0.231
AGGGGAAC | -0.217
CCAGCCAC | -0.102
AGGGCTCG | -0.0204
CCGTAAAC | 0.267
CTAGGCAG | -0.189

Other studies, line by line
Substance | target | test | system | conditions | how to read | endpoint | result
PhoQ, residues 284 288 289 292 302 303 SNSSNI | PhoP, residues 12 14 15 18 19 LHSVQ (Escherichia coli, UniProt P23836) | Sort-seq, item: YFP reporter | E. coli | PhoQ-PhoP variant library, with: 10 µM Mg2+ | reference: high Mg2+ state, higher = stronger signaling | fold induction | 1.6

Repeated from above (series 3):
Sequence | E-score
TATCGAGA | 0.161
CTGCAAAC | 0.0345
TATCGGGA | 0.0141
CCCGACAG | -0.185
CGGATCTC | -0.304
GAGGTTGC | -0.233
GGGGTGTA | -0.107
CTCTTCAG | -0.117
CCTTGGGC | -0.321
AAAGCAAC | -0.00552
CTCCTAAG | -0.183
AGCGCAAA | -0.0184
